Measured values gathered from unrelated publications.
Each line is one published result; not all experiments were run side by side. “And” joins repeats or separate records; there may be more than shown. ± gives the spread as reported.
PKLR: Pyruvate kinase PKLR (PKLR, Homo sapiens, UniProt P30613)
Sequence of UniProt P30613 (whole entry, looked up): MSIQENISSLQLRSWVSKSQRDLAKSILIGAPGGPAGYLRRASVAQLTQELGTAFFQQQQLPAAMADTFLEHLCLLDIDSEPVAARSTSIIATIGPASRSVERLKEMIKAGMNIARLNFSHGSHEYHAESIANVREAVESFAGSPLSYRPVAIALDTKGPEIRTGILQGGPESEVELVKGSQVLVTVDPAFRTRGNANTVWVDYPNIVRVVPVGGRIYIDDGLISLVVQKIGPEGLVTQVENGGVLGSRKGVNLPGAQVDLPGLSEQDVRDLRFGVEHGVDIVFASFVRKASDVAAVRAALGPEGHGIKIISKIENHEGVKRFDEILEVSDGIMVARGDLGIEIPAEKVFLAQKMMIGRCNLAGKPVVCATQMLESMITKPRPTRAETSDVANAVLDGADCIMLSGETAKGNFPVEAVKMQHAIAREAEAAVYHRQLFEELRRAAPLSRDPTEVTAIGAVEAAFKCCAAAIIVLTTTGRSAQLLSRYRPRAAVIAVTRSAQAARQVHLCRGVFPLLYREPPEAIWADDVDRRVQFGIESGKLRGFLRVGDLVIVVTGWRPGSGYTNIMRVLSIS
Nuclear receptor subfamily 2 group C member 2 ligand-binding domain: Nuclear receptor subfamily 2 group C member 2, ligand-binding domain (Homo sapiens, UniProt P49116)
Sequence of UniProt P49116 (whole entry, looked up): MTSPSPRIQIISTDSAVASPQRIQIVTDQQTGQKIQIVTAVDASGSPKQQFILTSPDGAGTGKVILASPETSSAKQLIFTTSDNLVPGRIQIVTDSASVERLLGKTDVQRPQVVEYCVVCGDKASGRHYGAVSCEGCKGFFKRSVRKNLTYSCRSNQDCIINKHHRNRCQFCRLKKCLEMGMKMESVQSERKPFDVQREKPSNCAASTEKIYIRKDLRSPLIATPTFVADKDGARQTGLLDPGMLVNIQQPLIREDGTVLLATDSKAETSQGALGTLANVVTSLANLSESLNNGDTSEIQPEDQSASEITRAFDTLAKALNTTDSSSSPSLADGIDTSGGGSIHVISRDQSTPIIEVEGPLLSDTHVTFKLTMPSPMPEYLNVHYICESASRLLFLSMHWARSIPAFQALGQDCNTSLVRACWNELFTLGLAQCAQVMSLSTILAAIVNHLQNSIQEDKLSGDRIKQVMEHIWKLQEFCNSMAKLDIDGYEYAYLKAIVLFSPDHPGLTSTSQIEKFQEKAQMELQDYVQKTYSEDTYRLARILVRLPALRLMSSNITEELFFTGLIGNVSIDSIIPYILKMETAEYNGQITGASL
YWHAG/RELA phospho-Ser45 p65 peptide: YWHAG/RELA, phospho-Ser45 p65 peptide (Homo sapiens, UniProt P61981+Q04206)
Sequence of UniProt P61981 (whole entry, looked up): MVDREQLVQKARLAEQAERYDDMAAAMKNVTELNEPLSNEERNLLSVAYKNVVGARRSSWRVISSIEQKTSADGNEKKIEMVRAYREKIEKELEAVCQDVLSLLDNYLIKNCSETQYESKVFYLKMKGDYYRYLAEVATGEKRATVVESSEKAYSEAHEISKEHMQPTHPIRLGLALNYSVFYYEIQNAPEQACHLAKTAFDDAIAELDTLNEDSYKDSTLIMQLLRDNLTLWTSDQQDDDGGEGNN
Sequence of UniProt Q04206 (whole entry, looked up): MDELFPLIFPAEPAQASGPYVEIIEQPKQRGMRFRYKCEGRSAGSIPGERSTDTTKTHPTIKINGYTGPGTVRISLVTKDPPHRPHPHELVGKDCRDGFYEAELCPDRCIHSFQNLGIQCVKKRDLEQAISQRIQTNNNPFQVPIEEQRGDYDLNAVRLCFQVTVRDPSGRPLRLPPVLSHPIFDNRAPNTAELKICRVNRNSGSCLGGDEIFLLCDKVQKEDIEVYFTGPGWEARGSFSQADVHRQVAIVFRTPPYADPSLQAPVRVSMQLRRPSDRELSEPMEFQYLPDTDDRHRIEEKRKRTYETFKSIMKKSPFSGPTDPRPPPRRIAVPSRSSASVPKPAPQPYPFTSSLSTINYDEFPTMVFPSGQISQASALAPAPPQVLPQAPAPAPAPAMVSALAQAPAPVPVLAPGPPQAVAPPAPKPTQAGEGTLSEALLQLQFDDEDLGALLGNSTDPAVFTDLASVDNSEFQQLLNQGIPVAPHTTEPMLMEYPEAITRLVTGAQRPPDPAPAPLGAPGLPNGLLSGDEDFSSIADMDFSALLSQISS
PPARA: Peroxisome proliferator-activated receptor alpha (PPARA, Homo sapiens, UniProt Q07869)
Sequence of UniProt Q07869 (whole entry, looked up): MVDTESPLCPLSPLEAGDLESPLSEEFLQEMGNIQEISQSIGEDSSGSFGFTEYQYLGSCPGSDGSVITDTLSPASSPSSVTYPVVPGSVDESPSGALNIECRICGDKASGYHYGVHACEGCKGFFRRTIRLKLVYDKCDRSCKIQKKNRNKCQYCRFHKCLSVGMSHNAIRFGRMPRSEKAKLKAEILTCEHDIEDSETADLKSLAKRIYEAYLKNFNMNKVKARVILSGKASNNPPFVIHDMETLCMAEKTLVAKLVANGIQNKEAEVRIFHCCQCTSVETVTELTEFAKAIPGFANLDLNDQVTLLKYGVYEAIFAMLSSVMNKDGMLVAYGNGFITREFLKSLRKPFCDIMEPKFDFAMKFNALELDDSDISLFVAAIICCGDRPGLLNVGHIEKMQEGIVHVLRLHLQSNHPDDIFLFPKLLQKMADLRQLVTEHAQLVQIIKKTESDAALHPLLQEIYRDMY
Sequence of UniProt Q8N884 (whole entry, looked up): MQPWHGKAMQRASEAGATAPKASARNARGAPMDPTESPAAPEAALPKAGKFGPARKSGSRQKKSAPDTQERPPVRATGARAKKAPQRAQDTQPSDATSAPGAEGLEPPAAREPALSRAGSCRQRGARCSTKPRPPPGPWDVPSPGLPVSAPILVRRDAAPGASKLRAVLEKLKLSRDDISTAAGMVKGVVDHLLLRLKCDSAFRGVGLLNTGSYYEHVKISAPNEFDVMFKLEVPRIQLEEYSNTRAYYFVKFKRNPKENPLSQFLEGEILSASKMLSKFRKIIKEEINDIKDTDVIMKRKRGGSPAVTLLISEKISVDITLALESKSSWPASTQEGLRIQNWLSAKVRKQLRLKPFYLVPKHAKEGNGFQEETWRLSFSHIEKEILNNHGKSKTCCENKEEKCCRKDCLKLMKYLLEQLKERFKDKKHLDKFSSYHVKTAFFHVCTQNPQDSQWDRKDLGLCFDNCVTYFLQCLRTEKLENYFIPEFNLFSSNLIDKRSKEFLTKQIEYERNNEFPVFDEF
Sequence of UniProt P10145 (whole entry, looked up): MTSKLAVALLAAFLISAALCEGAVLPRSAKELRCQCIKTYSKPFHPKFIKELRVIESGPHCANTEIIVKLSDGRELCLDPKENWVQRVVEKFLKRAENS
Sequence of UniProt P08913 (whole entry, looked up): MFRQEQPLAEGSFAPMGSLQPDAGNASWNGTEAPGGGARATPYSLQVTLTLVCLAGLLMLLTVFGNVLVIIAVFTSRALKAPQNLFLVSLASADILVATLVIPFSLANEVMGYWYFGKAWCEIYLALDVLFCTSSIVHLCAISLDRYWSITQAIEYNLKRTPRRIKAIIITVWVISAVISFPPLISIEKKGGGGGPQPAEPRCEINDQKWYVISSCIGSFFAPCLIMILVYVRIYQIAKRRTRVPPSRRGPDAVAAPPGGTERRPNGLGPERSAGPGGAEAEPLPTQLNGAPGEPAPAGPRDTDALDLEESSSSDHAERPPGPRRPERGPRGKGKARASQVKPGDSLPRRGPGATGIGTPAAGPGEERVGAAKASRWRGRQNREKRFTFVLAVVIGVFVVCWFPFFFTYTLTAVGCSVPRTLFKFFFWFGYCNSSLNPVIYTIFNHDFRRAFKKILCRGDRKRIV
Sequence of UniProt Q7RTX0 (whole entry, looked up): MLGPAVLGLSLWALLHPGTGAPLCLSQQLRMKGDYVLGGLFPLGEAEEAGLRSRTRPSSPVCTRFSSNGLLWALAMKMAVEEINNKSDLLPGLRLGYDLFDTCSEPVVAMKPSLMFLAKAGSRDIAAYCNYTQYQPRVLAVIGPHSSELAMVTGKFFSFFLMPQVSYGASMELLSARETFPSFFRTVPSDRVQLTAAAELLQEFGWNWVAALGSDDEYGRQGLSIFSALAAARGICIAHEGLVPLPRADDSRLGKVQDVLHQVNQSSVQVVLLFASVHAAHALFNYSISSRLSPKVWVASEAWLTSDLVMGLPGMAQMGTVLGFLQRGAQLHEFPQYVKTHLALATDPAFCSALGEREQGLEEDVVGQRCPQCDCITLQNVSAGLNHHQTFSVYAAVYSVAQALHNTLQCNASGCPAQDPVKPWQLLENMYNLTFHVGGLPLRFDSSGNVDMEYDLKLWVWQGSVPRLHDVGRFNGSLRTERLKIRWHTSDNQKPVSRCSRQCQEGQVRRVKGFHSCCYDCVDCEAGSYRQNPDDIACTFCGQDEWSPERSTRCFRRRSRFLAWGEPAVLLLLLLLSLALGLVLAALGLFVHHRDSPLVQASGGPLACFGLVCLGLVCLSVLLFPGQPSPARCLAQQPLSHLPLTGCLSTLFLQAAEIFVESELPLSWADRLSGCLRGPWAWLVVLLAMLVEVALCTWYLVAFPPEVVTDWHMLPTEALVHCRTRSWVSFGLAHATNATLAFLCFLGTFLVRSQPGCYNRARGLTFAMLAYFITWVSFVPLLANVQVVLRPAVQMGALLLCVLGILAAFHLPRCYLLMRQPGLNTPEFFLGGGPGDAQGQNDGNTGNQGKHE
Sequence of UniProt P34981 (whole entry, looked up): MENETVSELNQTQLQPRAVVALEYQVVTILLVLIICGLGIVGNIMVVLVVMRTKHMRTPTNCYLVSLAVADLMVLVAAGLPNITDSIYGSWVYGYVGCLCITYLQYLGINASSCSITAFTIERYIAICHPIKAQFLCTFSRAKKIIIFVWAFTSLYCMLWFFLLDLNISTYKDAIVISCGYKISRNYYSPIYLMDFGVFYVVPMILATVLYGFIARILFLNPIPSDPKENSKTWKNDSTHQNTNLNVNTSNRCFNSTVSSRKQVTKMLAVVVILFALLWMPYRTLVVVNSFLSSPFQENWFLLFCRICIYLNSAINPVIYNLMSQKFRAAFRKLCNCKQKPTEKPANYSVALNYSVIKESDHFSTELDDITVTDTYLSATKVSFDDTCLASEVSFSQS

O=C(COP(=O)(O)O)[C@@H](O)[C@H](O)[C@H](O)COP(=O)(O)O
EC50 (Pyruvate kinase PKM (PKM, Homo sapiens, UniProt P14618); pyruvate kinase activity, activator; HeLa cell lysate; without AIM): 0.0435 ± 0.0186 µM

C#Cc1cccc(Nc2ncnc3cc(OC)c(OCCCCCCC(=O)NO)cc23)c1
viability (OCI-Ly1; 1 µM, 120 h): 9.74%

CN1CC2c3ccccc3Oc3ccc(Cl)cc3C2C1 (stereo not drawn)
EC50 (5-hydroxytryptamine receptor 1A, with Goα S314K (HTR1A, Homo sapiens, UniProt P08908)): 0.0314 µM

NC(=O)c1ccccc1SC1=NS(=O)(=O)c2ccccc21
EC50 (PKLR; enzyme activity, activator; 30 min, 24 °C, together with: 0.125 mM PEP and 0.1 mM ADP): 0.67 µM

Nc1ncnc2nc[nH]c12
Kd (Nuclear receptor subfamily 2 group C member 2 ligand-binding domain; SPR imaging): 0.0237 nM

CO[C@H]1O[C@H](COS(=O)(=O)O)[C@@H](O[C@@H]2O[C@@H](C(=O)O)[C@@H](O[C@H]3O[C@H](COS(=O)(=O)O)[C@@H](O[C@@H]4O[C@H](C(=O)O)[C@@H](O[C@H]5O[C@H](COS(=O)(=O)O)[C@@H](O)[C@H](O)[C@H]5NS(=O)(=O)O)[C@H](O)[C@H]4O)[C@H](OS(=O)(=O)O)[C@H]3NS(=O)(=O)O)[C@H](O)[C@H]2OS(=O)(=O)O)[C@H](O)[C@H]1NS(=O)(=O)O
EC50 (Interleukin-8 (CXCL8, Homo sapiens, UniProt P10145); fluorescence polarization competition; CXCL8 800 nM, 100% DW, together with: TAMRA-labelled probe): 26.3 ± 5.6 µM

Cn1ccc(NC(=O)c2ccc(C=O)cc2)n1
EC50 (YWHAG/RELA phospho-Ser45 p65 peptide; ternary complex formation, stabilizer, fluorescence anisotropy): > 1000 µM

O=C(COP(=O)(O)O)[C@@H](O)[C@H](O)[C@H](O)COP(=O)(O)O
EC50 (PKLR; enzyme activity, activator; 30 min, 24 °C, together with: 0.125 mM PEP and 0.1 mM ADP): 0.02 µM

O=Cc1ccc([N+](=O)[O-])c(N2CCC(N3CCCC3)CC2)c1
EC50 (YWHAG/RELA phospho-Ser45 p65 peptide; ternary complex formation, stabilizer, fluorescence anisotropy): > 1000 µM

CCCC(CCC)NC(=O)c1ccc2c(c1)OCO2
EC50 (T1R1/T1R3 (Homo sapiens, UniProt Q7RTX0+Q7RTX1); receptor activation, agonist, luminescence; stably transfected cells): 1.6 µM

O=S1(=O)N=C(Oc2ccccc2)c2ccccc21
EC50 (PKLR; enzyme activity, activator; 30 min, 24 °C, together with: 0.125 mM PEP and 0.1 mM ADP): > 100 µM

O=C(O)CCCc1cc2cc(Cl)ccc2n1S(=O)(=O)c1ccc2ncsc2c1
EC50 (PPARA; receptor activation, agonist, cell-based): 3 µM

O=Cc1ccc([N+](=O)[O-])c(N2CCCC2c2ccccc2)c1 (stereo not drawn)
EC50 (YWHAG/RELA phospho-Ser45 p65 peptide; ternary complex formation, stabilizer, fluorescence anisotropy): > 1000 µM

CSc1ccc(C(=O)/C=C/c2cc(C)c(OC(C)(C)C(=O)O)c(C)c2)cc1
EC50 (PPARA; receptor activation, agonist, cell-based): 0.1 µM

O=Cc1ccc(-n2ccnc2)nc1
EC50 (YWHAG/RELA phospho-Ser45 p65 peptide; ternary complex formation, stabilizer, fluorescence anisotropy): > 1000 µM

Cc1ccc(NC(=O)c2cccc(N(C)C)c2)cc1NC(=O)c1ccc(O)cc1
EC50 (MAPK14 (Homo sapiens, UniProt Q16539); thermal stabilization, binder, isothermal NanoLuc TSA; permeabilized HeLa, Nluc fusion): 13.4 µM

Nc1ccc(CNc2ccncc2)c(F)c1
EC50 (ADRA2A (Homo sapiens, UniProt P08913); agonist, FLIPR reporter; reporter cell line): 3.5 µM

O=Cc1ccc(-n2cnc3ccccc32)nc1
EC50 (YWHAG/RELA phospho-Ser45 p65 peptide; ternary complex formation, stabilizer, fluorescence anisotropy): > 1000 µM

CCOCc1nc(O)c(-c2nnc(Cc3ccc(Cl)cn3)o2)c(O)c1-c1c(OC)cccc1OC
EC50 (Apelin receptor (APLNR, Homo sapiens, UniProt P35414); Gα13/PDZ–RhoGEF activation, agonist, BRET biosensor; HEK293): 0.0197 ± 0.00435 µM

COc1ccc2c(c1)nc(Cl)n2S(=O)(=O)c1ccc(C=O)cc1
EC50 (YWHAG/RELA phospho-Ser45 p65 peptide; ternary complex formation, stabilizer, fluorescence anisotropy): > 1000 µM

CC1(C)S[C@@H]2[C@H](NC(=O)[C@H](NC(=O)N3CCNC3=O)c3ccccc3)C(=O)N2[C@H]1C(=O)O
Kd (Nuclear receptor subfamily 2 group C member 2 ligand-binding domain; SPR imaging): 2.14 nM

CC1(C)Cc2c(sc(NC(=O)c3ccn[nH]3)c2C(N)=O)C(C)(C)O1
EC50 (cftr (Danio rerio, UniProt Q1LX78); chloride current, activator, inside-out patch clamp; CHO cells transfected): 3.98 ± 1.74 µM

CCCCC[C@H](O)/C=C/[C@H]1[C@H](O)CC(=O)[C@@H]1C/C=C\CCCC(=O)O
EC50 (PTGER1 (Homo sapiens, UniProt P34995, M117A); IP1 accumulation, agonist; AD293; EP1 M117A mutant): 0.221 µM

N#CC1CCN(C(=O)c2ccc(C=O)cc2)CC1
EC50 (YWHAG/RELA phospho-Ser45 p65 peptide; ternary complex formation, stabilizer, fluorescence anisotropy): > 1000 µM

Cc1nn(-c2nc3c(F)cc(F)cc3s2)c(O)c1C(c1ccc(C(F)(F)F)cc1)c1c(C)nn(-c2nc3c(F)cc(F)cc3s2)c1O
EC50 (Cyclic GMP-AMP synthase, catalytic domain; with DNA (CGAS, Homo sapiens, UniProt Q8N884); cGAS phase separation, inhibitor): 4.61 µM and 5.89 µM

O=Cc1ccc([N+](=O)[O-])c(OC(=O)c2ccc(F)c(F)c2)c1
EC50 (YWHAG/RELA phospho-Ser45 p65 peptide; ternary complex formation, stabilizer, fluorescence anisotropy): > 1000 µM

NC(=O)[C@@H]1CCCN1C(=O)[C@H](Cc1cnc[nH]1)NC(=O)[C@@H]1CCC(=O)N1
EC50 (TRHR (Homo sapiens, UniProt P34981); agonist, cell-based): 0.00151 µM

Excerpt of the above:
Cn1ccc(NC(=O)c2ccc(C=O)cc2)n1
EC50 (YWHAG/RELA phospho-Ser45 p65 peptide; ternary complex formation, stabilizer, fluorescence anisotropy): > 1000 µM

O=C(COP(=O)(O)O)[C@@H](O)[C@H](O)[C@H](O)COP(=O)(O)O
EC50 (Pyruvate kinase PKM (PKM, Homo sapiens, UniProt P14618); pyruvate kinase activity, activator; HeLa cell lysate; without AIM): 0.0435 ± 0.0186 µM
